Experimental data collected from several papers.
Each numbered part is a random draw from the data of one study; scales do not carry over between parts.

Study 1
Target: Histone acetyltransferase KAT6A, winged helix 1, GST fusion (KAT6A, Homo sapiens, UniProt Q92794, residues 1-85)
Technique: protein binding microarray
Molecule type: double-stranded DNA, one strand shown
Sample: in vitro
Tested at: not given
Setting: 8-mer, flanks averaged, mean of 2 arrays, mostly near background
Reference: not given
Direction: higher = stronger binding
Quantity: E-score
Construct (chain): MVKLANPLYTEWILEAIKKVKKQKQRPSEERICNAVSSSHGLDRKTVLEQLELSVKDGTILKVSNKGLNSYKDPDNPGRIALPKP
ACGGACCA: 0.168
CTCGGACC: 0.11
AGGAACCT: -0.136
GGAGCAAC: 0.0655
ATTTGAGC: -0.119
ACCCCTAG: -0.177
ATACTGAC: -0.074
CGACCCTC: -0.129
GGGTCCTA: -0.15
CTTTCCAC: -0.0235
CGCAGGGA: 0.0617
AAACCGTG: -0.0492
ATTCCCGC: 0.374
CCGGAGTA: 0.205
AGGCCTAC: -0.172
CGACGGCG: 0.472
AGTAACTC: -0.126
CAAAGGGC: -0.128
GTTGTGAA: -0.305

Study 2
Target: Centromere-binding protein 1, full length, His-tagged (CBF1, Saccharomyces cerevisiae, UniProt P17106, residues 1-351)
Sequence of UniProt P17106 (whole entry, looked up): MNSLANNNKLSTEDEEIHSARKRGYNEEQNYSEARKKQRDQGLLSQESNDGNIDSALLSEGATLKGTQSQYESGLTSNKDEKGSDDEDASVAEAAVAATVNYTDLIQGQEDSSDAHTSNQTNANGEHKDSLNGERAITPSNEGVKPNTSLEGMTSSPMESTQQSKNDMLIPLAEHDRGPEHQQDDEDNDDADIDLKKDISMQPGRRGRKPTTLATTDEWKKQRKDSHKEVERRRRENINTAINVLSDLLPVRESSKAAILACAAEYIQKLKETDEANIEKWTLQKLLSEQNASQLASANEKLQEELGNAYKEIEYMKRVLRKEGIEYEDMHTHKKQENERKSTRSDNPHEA
Technique: competition protein-binding microarray
Molecule type: double-stranded DNA, one strand shown
Sample: in vitro
Tested at: 2 µM
Setting: whole 60-bp probe, lowest competitor level
Added: Pho4 competitor, 0.05 µM
Direction: higher = stronger binding
Quantity: fluorescence intensity
Shared flanks, not repeated: … GTCTTGATTCGCTTGACGCTGCTG
AAGCCTTTGGAACGCCATGTGTAAGGTGCAATGGAC: 89.3 a.u.
CGGGGTTAAGTTTGCGAAGTGGGTGGCTTGCAGCAG: 75.9 a.u.
TCCAGAACTTTTAAGCGCGTGTTCCAGGCGTTGCCG: 69.7 a.u.
TAAGTTTTTGGCCTGTGCGTGTTGATAAGGGAAAGA: 86.8 a.u.
CTAACGAAGGTTTGGGATGTGGGTGACAAGCCAAGT: 76 a.u.
CTATCTAGTACCCGCCCCGTGGCAAAAAAAGAAGAC: 124 a.u.
GTCTTGTCTCATTGGGTCGTGGGTGTCCCCACTTCA: 70.4 a.u.
GTAGCTCTGTCAAACCCCGTGGAACCGCAAACTCAT: 102 a.u.
GCGTTATGAGCTACCCTCGTGGCCGGAAAGATGGCG: 88.7 a.u.
GTCTTGTCTCATTGCGATGTGGGTGTCCCCACTTCA: 72.1 a.u.
CTAACGAAGGTTTGCACCGTGGGTGACAAGCCAAGT: 70.1 a.u.
CTTCTTTTTTTGGATTACGTGCTTTTAAAGCGGGAT: 92.2 a.u.
TCTCGACCCGGGTGGCTCGTGCGATCTCCGGAAAAA: 72 a.u.
GTCTTGTCTCATTGTCACACGACTTTCCCCACTTCA: 158 a.u.
CTTCTGTAAATTTGCCACGTGTTTTGACGCGCCCCG: 967 a.u.
CGTCCTAGTGATTTTCACGTGACTTCCATGAGGAAG: 5660 a.u.

Study 3
Target: RING finger protein unkempt homolog, zinc fingers 1-6, GST-SBP tag (UNK, Homo sapiens, UniProt Q9C0B0, residues 30-357)
Sequence of UniProt Q9C0B0 (30-357, looked up): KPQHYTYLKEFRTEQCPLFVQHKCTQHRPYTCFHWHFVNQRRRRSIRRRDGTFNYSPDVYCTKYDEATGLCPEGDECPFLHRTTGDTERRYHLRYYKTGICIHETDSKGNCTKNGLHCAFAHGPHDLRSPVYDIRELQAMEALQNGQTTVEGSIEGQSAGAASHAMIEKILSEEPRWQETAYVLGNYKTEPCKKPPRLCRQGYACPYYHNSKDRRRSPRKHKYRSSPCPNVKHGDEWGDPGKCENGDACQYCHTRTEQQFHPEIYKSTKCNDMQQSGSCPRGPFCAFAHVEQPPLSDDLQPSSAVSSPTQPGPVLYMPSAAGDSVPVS
Technique: RNA Bind-n-Seq
Molecule type: RNA
Sample: in vitro
Tested at: not given
Setting: RNA with constant flanks, human-mouse chimeric sites, ends assumed
Reference: input RNA pool
Direction: higher = stronger binding
Quantity: bound/input enrichment
Shared flanks, not repeated: GGGAGUUCUACAGUCCGACGAUC … CAACAGAGGAUUGAGCAUCA
AGGAGGAGGUUAAAGGGUGAGAGUGGGAUGGAGGAUUGUGUCAUGGCUCUGGAGACACUGUUCAGUGUCCUGCUUUCUCUGUGCAGACUGAUGGCCCCUUACACGCCCUUUCUGACUGAG: 0.148 ratio
GGUGGGGUGGUCAUUGCGCCAAUUGAGGCUGAUUUUCAUGAGUCGCCUUCAAAACUCUCGCAUAGGGUUGACAAUGUGGGGGGGUGGGGGAUCCAGCUUAUUCUUUUAUUUUCAAGUCCA: 0.933 ratio
GGCUGCUGGUGACUGUCCUGGAGUGGCCGUGUCACCGGCCGGAGCGCGGCCAGACUAAUUAUAGAAAAUGCCAAGUAGGAAGUUUGUUGAGGGUGAAGUGGUCAGAGGCCGAUGGCCUGG: 3.76 ratio
UGACAAGGGCACUGCAGAGCCAUGCCUUUCCUUGACAUACAGAAAAAGCUGGGCAUCAGCCUGGACCGGCACUUUAUAAUCCAGAGUGCAGAACAGCCCUAUAAGAAGGCUGGUCGAUGC: 0.114 ratio
CGCUGGCCCAAGCUGAUGGACUCUGAUGGCCUCCAUCUCUCAGGCACGUUUGCCUUCUCUUAGUCCCUGUUUUCGGGAUGUUAUGAAUCUCAGUACUGUUUGACAGAAGCACCAGCUUUG: 0.171 ratio
CAGUCCCCGUGUCCCAGUGCAGGACGAUGUGAACAAAAACUCAAAGCGGACCCUCUAUUGUAGUUCUUGAUUCUCGAGUGCCAUUAUUGUUUUUAAACUUUUUUUUUUUUUUUUUAAAGA: 1.31 ratio
GCAAAGGAUGAUGAGGCGGCAGCUGUUGCACUUUCCUCCCUGAUUCAUGCUUUGGAUGAGUUAAACAUGGUCGCCAUCGUCCGAUAUGCUUAUGACAAAAGAUCUAAUCCUCAAGUUGGU: 0.103 ratio
GAUGAUAAUCACACAAACAAGUCACUGUUACAUGACCAGAGUUGUACUUCUUCUCCUGAUUAAUAUUCUCCCUGGAACCACUGGUCAAGGGGAAUCAAGACGACAAGAACCCGGGGACUU: 0.193 ratio
UCAUUUUGCUCGGGUUAUUCUUUCCUUUAGGAAAAGCCUAAAGAUUAGGUUGUAAGAAAAACAGAAGCCAUGUUUCGAAGACCUGUGUUACAGGUAUUUCGUCAGUUUGUAAGACAUGAG: 0.612 ratio
UCUUUGUGUAACUUAUCUGUAAAAGGUUCCCCCCCCCUACUGUCAAAAAAUAUGCAUGUAUAGUAAUUAGGACUUCAUUCCUCCAUGUUUUCUUCCCUUAUCUUACUGUCAUUGUCCUUA: 2.1 ratio
GCUCUUGGCAAUGUAAUCAGCGCCUUGGGGGACAAGAGCAAGAGAGCCACCCAUGUCCCUUACAGAGACUCUAAGCUGACAAGACUCUUGCAGGAUUCCCUUGGGGGUAACAGCCAAACC: 0.146 ratio

Study 4
Target: Prothrombin, mature alpha-thrombin (F2, Homo sapiens, UniProt P00734)
Technique: aptamer microarray, sandwich
Molecule type: DNA with 2'F-ANA
Sample: in vitro
Tested at: 200 nM
Setting: whole 15-mer aptamer, many near background
Added: Cy3 exosite-II aptamer, 400 nM
Direction: higher = stronger binding
Quantity: mean fluorescence intensity
Strand: GGTTGGTGTGGTTGG
2'F-ANA at 3 6 8 11 12 14 15: 583 a.u.
2'F-ANA at 2 3 5 6 9 10 12: 59.4 a.u.
2'F-ANA at 3 5 6 8 9 10 12 13 14 15: 49.8 a.u.
2'F-ANA at 2 3 7 8 9 12 14: 519 a.u.
2'F-ANA at 1 5 6 7 10 13: 56.5 a.u.
2'F-ANA at 1 2 3 4 8 10 13 14 15: 67.3 a.u.
2'F-ANA at 1 3 4 5 6 7 8 9 10 11: 50.3 a.u.
2'F-ANA at 3 5 7 8 11 14 15: 59.8 a.u.
2'F-ANA at 2 4 5 7 9 10 14 15: 46.8 a.u.
2'F-ANA at 1 4 7 8 10 12: 57.9 a.u.
2'F-ANA at 1 3 7 9 10 11 12 13 14 15: 61 a.u.
2'F-ANA at 1 5 6 7 8 10 11 12 13 15: 51.9 a.u.
2'F-ANA at 2 10 11 14: 78.6 a.u.
2'F-ANA at 4 5 6 7 8 9 10 13 14 15: 47.6 a.u.
2'F-ANA at 1 3 4 5 7 10 14: 171 a.u.
2'F-ANA at 1 2 3 4 6 7 9 10 11 12 13 15: 81.4 a.u.

Study 5
Target: Sal-like protein 4, full length isoform A (SALL4, Homo sapiens, UniProt Q9UJQ4, residues 1-1053)
Sequence of UniProt Q9UJQ4 (whole entry, looked up): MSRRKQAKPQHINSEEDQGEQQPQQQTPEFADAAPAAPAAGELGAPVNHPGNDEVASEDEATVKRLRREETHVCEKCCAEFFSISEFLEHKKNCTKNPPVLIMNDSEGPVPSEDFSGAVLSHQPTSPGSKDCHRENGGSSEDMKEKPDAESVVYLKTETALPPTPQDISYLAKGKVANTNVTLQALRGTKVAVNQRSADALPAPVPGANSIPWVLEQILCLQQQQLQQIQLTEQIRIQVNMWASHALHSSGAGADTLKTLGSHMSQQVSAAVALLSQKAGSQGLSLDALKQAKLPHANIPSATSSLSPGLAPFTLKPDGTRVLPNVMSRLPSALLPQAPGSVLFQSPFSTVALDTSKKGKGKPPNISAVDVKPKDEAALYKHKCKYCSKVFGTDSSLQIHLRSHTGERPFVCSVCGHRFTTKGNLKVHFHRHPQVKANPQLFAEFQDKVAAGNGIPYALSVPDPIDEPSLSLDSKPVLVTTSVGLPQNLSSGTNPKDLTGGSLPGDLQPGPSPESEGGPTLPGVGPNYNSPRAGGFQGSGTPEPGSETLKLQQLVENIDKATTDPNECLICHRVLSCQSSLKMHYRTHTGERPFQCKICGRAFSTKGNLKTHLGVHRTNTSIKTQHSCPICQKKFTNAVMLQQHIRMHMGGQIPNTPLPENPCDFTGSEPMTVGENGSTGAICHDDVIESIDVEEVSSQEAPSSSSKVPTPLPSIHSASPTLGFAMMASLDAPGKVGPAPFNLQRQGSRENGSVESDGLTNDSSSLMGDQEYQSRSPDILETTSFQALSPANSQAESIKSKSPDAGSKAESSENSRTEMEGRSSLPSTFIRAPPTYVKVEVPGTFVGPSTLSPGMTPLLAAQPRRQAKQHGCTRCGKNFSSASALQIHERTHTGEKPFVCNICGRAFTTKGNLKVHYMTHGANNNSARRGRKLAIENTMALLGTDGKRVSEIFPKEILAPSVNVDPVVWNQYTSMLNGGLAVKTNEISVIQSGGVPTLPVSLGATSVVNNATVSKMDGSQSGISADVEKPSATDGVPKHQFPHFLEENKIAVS
Technique: universal PBM
Molecule type: double-stranded DNA, one strand shown
Sample: in vitro
Tested at: 600 nM
Setting: 8-mer, flanks averaged, mean of replicates
Direction: higher = stronger binding
Quantity: E-score
CTTATACC: 0.173
AACATCCG: -0.0205
AAGACAAT: 0.276
GATATCAA: 0.273
ACTATTTC: 0.255
GTCACTCA: -0.0898
GTATAAAC: 0.203
AGATGCTG: -0.118
CGGTAGTC: -0.219
CGTCTTTC: -0.107
ACCCTGCA: 0.0228
GCCAAACA: -0.103
AGCGGCAG: -0.301
CTTGTATC: 0.161
CAGAGAGG: -0.258
AGGACACA: 0.132

Study 6
Target: Interferon regulatory factor 5, full length, phosphomimetic (IRF5, Homo sapiens, UniProt Q13568-2, residues 1-514, K96S/S451D/S453D/S456D/S462D)
Technique: protein-binding microarray
Molecule type: double-stranded DNA, one strand shown
Sample: in vitro
Tested at: 250 nM
Setting: 60-bp whole probe
Added: salmon DNA 0.4 mg/ml
Reference: random background probes
Direction: higher = stronger binding
Quantity: log fluorescence
Shared flanks, not repeated: GCCTAGCAC … GTCTTGATTCGCTTGACGCTGCTG
TTAGATTTCGGGTTTCGAATAGTGCTA: 6.23 z-score
GACGGTATCAGGTTTCGGGACGTGCTA: 3.39 z-score
TTAGAAATCAGACTGGATTAGTGCTAG: 0.0276 z-score
GACGGACTGCTCCTGCTGACGTGCTAG: -0.512 z-score
TTAGGTCTCCTAATCCTTTAGTGCTAG: -0.289 z-score
GACGGTTTCGATTTCGGGACGTGCTAG: 9.15 z-score
TTAGGTATCGGTTTCTGTTAGTGCTAG: 9.05 z-score
GACGGACTGCGTCTCGGGACGTGCTAG: -0.793 z-score
TTCGAACTGGGGACTGGATTAGTGCTA: -0.299 z-score
AAATGTTTTGTTTTTCATTAGTGCTAG: 2.14 z-score
TTTCCTTTACATTCCCCATTGTGCTAG: 3.22 z-score
TTAGATTTCGGGTATCGATAAGTGCTA: 7.57 z-score
TTAGATATCAGATTGGATTAGTGCTAG: 0.564 z-score
TTACGACTGGGACTGGGTTAGTGCTAG: 0.157 z-score
ATAGAACTGGGGTATCGATTAGTGCTA: 2.45 z-score
TCAATTATAACACTCTTACTGTGCTAG: 0.464 z-score
TTCGGTATCGACTTTCGGTTAGTGCTA: 10.3 z-score
TTAGACCTCAGTCTCGATTAGTGCTAG: 0.441 z-score
GAACATACTAATTTCCATTTGTGCTAG: 1.01 z-score
CTTGGCTTCTCCCACAGGTGGTGCTAG: -0.574 z-score
TTAGATTCCAGGTTCGATTAGTGCTAG: 0.658 z-score
GACGGAATCCTTTTCCTGACGTGCTAG: -0.094 z-score
GACGATTTCAGTTCCGAAACGTGCTAG: 2.42 z-score

Excerpt of the above (study 1):
CTTTCCAC: -0.0235
CGCAGGGA: 0.0617
AAACCGTG: -0.0492
ATTCCCGC: 0.374
CCGGAGTA: 0.205
AGGCCTAC: -0.172
